Results of several laboratories.
Numbered parts are unrelated; each lists some results of a single study. Changes are numbered by the printed parent chain.

Study 1
Target: RNA binding protein fox-1 homolog 2, RRM domain, GST-SBP tag (RBFOX2, Homo sapiens, UniProt O43251-10, residues 100-194)
Technique: RNA Bind-n-Seq
Form: RNA
Matrix: in vitro
Tested at: 365 nM
Setting: natural RNA segment, single round, ends assumed
Baseline: no-protein control
Direction: higher = stronger binding
Shared flanks, not repeated: GGGAGUUCUACAGUCCGACGAUC … UGGAAUUCUCGGGUGCCAA
Target sequence (chain): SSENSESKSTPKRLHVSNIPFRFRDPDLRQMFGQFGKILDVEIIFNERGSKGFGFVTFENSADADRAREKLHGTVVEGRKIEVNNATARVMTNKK
| Oligonucleotide | RBNS enrichment (R) |
| --- | --- |
| UUAAGUUUUCAUUUUUGAGGGGUAAUCACCUUCAAGUAAAACAGUAAUAGCAAGAGUGAAGGUACUUUGGAACCACUAACACCUCUGCACAGGGCAGUUAGCCAGCUCAA | 0.301 |
| UAUUCUGCCCUUGCUCUGUGUCAUCUCAGUCAUUUGACUUAGAAAGUGCCCUUCAAAAGGACCCUGUUCACUGCUGCACUUUUCAAUGAAUUAAAAUUUAUUUCUGUUCU | 0.342 |
| CCAUCUUGUGAAGCCCUGUUGUGCCCCACAGUGUAGCCAGGCCCCCUGCAGCUAGUCAUAGUGAAGCCCACCCUAAGGCCCUGUGAGCGCCAGCUCCCUCACAUGUACUU | 0.32 |
| AGGAGCAGCAUUAUCCCCAAAGAUAUUACAGGGUAGACACGUUUUAACUGAAAUCAAUCAAGAUAACUUUAUUCAAAGAGCAGCCCGCUUUGUGUGACUAAAAUGAAACA | 0.737 |
| AGGGCACAGACAGAGAGGCUACAGGGCGAGCUCUGACUGAAGAUGGGCCUUUGAAAUAUAGGUAUGCACCUGAGGUUGGGGGAGGGUCUGCACUCCCAAACCCCAGCGCA | 5.03 |
| GCAGAAGAGUGACCAGGAGCUUCGGCCAGGGAGACGGCGUGCAGGCCACUUGGCCUCCACUUGGUUUCUUCCCCACAUCUCUCACUUGGGCUGGGAACUGACAGAGGAGC | 0.382 |
| UGAAGCCGUCCUUUGUAGGAUGUUUCUUGCCACUUACGCUGUACUGUAGUUGCUUAUUCUUUCUGCCUUCUGCUUCAGCGUGAGGCUUCUUUGGUUUUCUGUGGCAGCGU | 0.352 |
| UGGGGUCAAGGGGCCUGGACCAGUAGAAGCCAUCAACCUACUGAAGUUGUGUGGAGGGAUGGAAAGUGGGUCAGUGGAGAAGGGAUUCAGAAAAUGACACAUUCUUCCCC | 0.694 |
| AUGGUGCCAACCAUCGGUUGUUUGGCAGCAGCUUUGAACGUAGCGCCUGUGAACUCAGGAAUGCACAGUUGACUUGGGAAGCAGUAUUACUAGAUCUGGAGGCAACCACA | 1.2 |
| UUGUCUGUGAUAACAGAGUGAUUUGUAAAACAGUGGUUGUUUUUUCAUUGUGUUUUCUUCGUGGAUUGUUUUUUCUGCGGGUCAUAUUCAUACCUUCUGAUGAAGUUGUA | 0.901 |
| GAUUCUUACAAGCAAAGGUCAUUGUGUUUUUUCUUGAGUAGAUACCUAAUAAAUUUUGCUUGAAAGUACCUUGGCUUCUCACUGGUGUUUAUGUAGACCUUGUCUUAUUC | 0.685 |
| CUUGCGUGCAGCGAGGAGGUCCUCCCUGACAUGCUCAGCAUCCCGCAGUGAUUCCUCUCAUAGCUCUGGGAUGGGGCUUGGUUAGGGUGUCGUGAUGGAAAUAAACCUGA | 0.444 |

Study 2
Target: CCNF, cyclin fold, Cln2 fusion (human)
Technique: yeast growth competition, sequencing
Matrix: yeast
Setting: strong parent motif
Baseline: not given
Direction: higher = stronger binding
Starting sequence: E2F1 docking peptide (human); PPVKRRLDLETDH
| Variant | normalised enrichment score |
| --- | --- |
| PPVWRRLDLETDH [K4W] | 3.9 |
| PPVKRRKDLETDH [L7K] | -0.462 |
| PPVDRRLDLETDH [K4D] | 2.2 |
| PPKKRRLDLETDH [V3K] | 0.376 |
| PPVKTRLDLETDH [R5T] | 0.0103 |
| PPVKRRLWLETDH [D8W] | 8.01 |
| PPVKRRLDLFTDH [E10F] | 6.74 |
| PPVVRRLDLETDH [K4V] | 6.08 |
| PPVKRRLYLETDH [D8Y] | 8.19 |
| PPVKRWLDLETDH [R6W] | 4.28 |
| NPVKRRLDLETDH [P1N] | 6.99 |
| PPVKRRYDLETDH [L7Y] | 0.0693 |
| PPVKRRLDLEHDH [T11H] | 5.26 |
| PPVKGRLDLETDH [R5G] | 1.07 |

Study 3
Target: ABI1, truncated, D143A, DHFR fusion (Arabidopsis thaliana)
Technique: DHFR PCA, deep sequencing
Matrix: yeast
Setting: methotrexate growth selection, single substitutions
With: (+)-ABA 58 µM
Baseline: wild-type fitted maximum
Direction: higher = stronger binding
Starting sequence: PYL1, truncated, DHFR fusion (Arabidopsis thaliana); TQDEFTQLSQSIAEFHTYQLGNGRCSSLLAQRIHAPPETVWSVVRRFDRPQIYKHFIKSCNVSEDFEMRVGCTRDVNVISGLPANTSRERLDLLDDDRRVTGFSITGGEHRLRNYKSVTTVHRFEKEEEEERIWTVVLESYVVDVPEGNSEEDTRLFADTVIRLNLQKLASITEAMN; partner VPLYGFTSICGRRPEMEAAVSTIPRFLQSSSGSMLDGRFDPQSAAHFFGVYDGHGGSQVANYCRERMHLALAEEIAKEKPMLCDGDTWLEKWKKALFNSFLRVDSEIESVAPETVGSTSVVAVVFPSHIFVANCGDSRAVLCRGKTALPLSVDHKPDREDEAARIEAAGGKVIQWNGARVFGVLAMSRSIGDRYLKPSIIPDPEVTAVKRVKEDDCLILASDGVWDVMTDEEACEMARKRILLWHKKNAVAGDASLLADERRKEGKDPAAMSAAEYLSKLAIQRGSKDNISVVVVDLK
| Variant | relative binding score |
| --- | --- |
| I79S | 78.3% |
| R113L | 87.2% |
| S87E | 6.63% |
| V161G | -3.78% |
| S104T | 92.1% |
| V40W | 1.12% |
| R155S | 58.5% |
| S104W | -4.68% |
| R111G | 23.2% |
| V145R | 44.1% |
| R155G | 23.5% |
| R24V | 84.2% |
| S26N | 75.3% |
| Y141P | 2.69% |
| Q51N | 53.6% |
| V118Q | 51.8% |

Study 4
Target: UBE2Z UBC core domain (UniProt Q9H832)
Technique: yeast two-hybrid
Matrix: yeast
Setting: mostly zero background
Baseline: not given
Direction: higher = stronger interaction
B1: ZNF598 RING domain (UniProt Q86UK7); chain AAAPERGGGSCVLCCGDLEATALGRCDHPVCYRCSTKMRVLCEQRYCAVCREELRQVVFGK
B2: MID1 RING domain (UniProt O15344); chain METLESELTCPICLELFEDPLLLPCAHSLCFNCAHRILVSHCATNESVESITAFQCPTCRHVITLSQRGL
B3: RNF170 RING domain (UniProt Q96K19); chain TRQQFYTDMYCPICLHQASFPVETNCGHLFCGACIIAYWRYGSWLGAISCPICRQTVTLLLTVF
B4: RC3H2 RING domain (UniProt Q9HBD1); chain QAAQWTEFLSCPICYNEFDENVHKPISLGCSHTVCKTCLNKLHRKACPFDQTAINTDIDVL
B5: CUL9 RING domain (UniProt Q8IWT3); chain AQAVPVRPDHCPVCVSPLGCDDDLPSLCCMHYCCKSCWNEYLTTRIEQNLVLNCTCPIADCPAQPTGAFIR
B6: TRIM69 RING domain (UniProt Q86WT6); chain VIQDITMELHCPLCNDWFRDPLMLSCGHNFCEACIQDFWRLQAKETFCPECKMLCQYNNCTF
Target sequence (chain): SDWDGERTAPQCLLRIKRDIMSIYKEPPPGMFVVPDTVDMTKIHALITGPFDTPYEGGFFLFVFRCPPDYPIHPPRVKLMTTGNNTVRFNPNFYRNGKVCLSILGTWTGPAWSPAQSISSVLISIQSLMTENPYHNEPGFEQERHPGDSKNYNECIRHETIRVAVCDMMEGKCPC
| Sequence | lacZ reporter activity |
| --- | --- |
| B1 (ZNF598 RING domain) | 0 |
| FASPPDSNFVCSVCHGVLKRPARLPCSHIFCKKCILRWLARQKTCPCCRKEVKRKKVVH (RNF151 RING domain (UniProt Q2KHN1)) | 0 |
| B2 (MID1 RING domain) | 0 |
| DDENSDNSNECVVCLSDLRDTLILPCRHLCLCTSCADTLRYQANNCPICRLPFRALLQIR (MGRN1 RING domain (UniProt O60291)) | 0 |
| YWAMDSTFELCKICAESNKDVKIEPCGHLLCSCCLAAWQHSDSQTCPFCRCEIKGWEAVS (CBLC RING domain (UniProt Q9ULV8)) | 0 |
| FPEHFVKSISCQICEHILADPVETNCKHVFCRVCILRCLKVMGSYCPSCRYPCFPTDLES (RAG1 RING domain (UniProt P15918)) | 0 |
| B3 (RNF170 RING domain) | 0 |
| B4 (RC3H2 RING domain) | 0 |
| B5 (CUL9 RING domain) | 0 |
| QHHELTSLFECPVCFDYVLPPILQCQAGHLVCNQCRQKLSCCPTCRGALTPSIRNL (SIAH2 RING domain (UniProt O43255)) | 0 |
| DAIPSLSECQCGICMEILVEPVTLPCNHTLCKPCFQSTVEKASLCCPFCRRRVSSWTRYH (RNF168 RING domain (UniProt Q8IYW5)) | 0 |
| B6 (TRIM69 RING domain) | 0 |

Study 5
Target: Fragile X messenger ribonucleoprotein 1, C-terminal low-complexity region (Fmr1, Mus musculus, UniProt P35922)
Technique: RNA Bind-n-Seq
Form: RNA
Matrix: in vitro
Tested at: 200 nM
Setting: whole 134-nt RNA, ends assumed
With: 150 mM KCl
Baseline: input library
Direction: higher = stronger binding
Shared flanks, not repeated: GGGAGUUCUACAGUCCGACGAUC … UGGAAUUCUCGGGUGUCAAGG
| Oligonucleotide | log2 enrichment |
| --- | --- |
| UAACUUUAGAGGAGGAUCUGAUGGAUAUGGCAGUGGACGUGGAUUUCGGGAUGGCUAUAAUGGGUAUGGAGGAGGACCUGGAGGUGGCAA | 0.179 |
| CUCAAGUCCUGUGCUACACAUCGUAUGUACCGAAUCGGAAAAAAAGGAGGAGGAAAGUAUUAUGUUACGCCGUUCGGAUCUGCACUUCCA | -0.292 |
| CACAGACAACACGCACCCACACAGACACAGAGGGAAGGGGUUGGGAUGGGGACAGGGUGCACAGCAGGGCGGGGUAGGACCCCGGCCCCU | 1.39 |
| ACCAUGCAGGUAAACAUCUUUGGGAAGUGGGGCAAGGGGGGGAUAGGGAGGGGGGUAACACUUUGGGAACAGGUGGUCCCAGGUCGUUUC | 0.996 |
| CACCGACAACACGCACCCACACAGACACAGAGGGAAGGGGUUGGGAUGGGGACAGGGUGCACAGCAGGGCGGGGUAGGACCCCAGCCCCU | 1.29 |
| CACAGACAACACGCACCCAGACAGACACAGAGGGAAGGGGUUGGGAUGGGGACAGGGUGCACAGCAGGGCGGGGUAGGACCCCAGCCCCU | 1.35 |
| CACAGACAACACGCACCCAAAAAGACACAGAGGGAAGGGGUUGGGAUGGGGACAGGGUGCACAGCAGGGCGGGGUAGGACCCCAGCCCCU | 1.3 |
| CCUGUGCUACACAUCGUAUGUACCGAAUCGGGUUUUUUUGGGAAAAAAAGGGUUUUUGGGAAAGUAUUAUGUUACGCCGUUCGGAUCUGC | -0.906 |
| AAGUCCUGUGCUACACAUCGUAUGUACCGAAUCGGAAAAGGGGAAAAGGGAAAAGGGAAAGUAUUAUGUUACGCCGUUCGGAUCUGCACU | -0.109 |
| CUCAAGUCCUGUGCUACACAUCGUAUGUACCGAAUCGGGGUGGGGUGGGUGGGAAAGUAUUAUGUUACGCCGUUCGGAUCUGCACUUCCA | 1.3 |
| AAGUCCUGUGCUACACAUCGUAUGUACCGAAUCGGGGUUUUGGGUUUUGGGUUUUGGAAAGUAUUAUGUUACGCCGUUCGGAUCUGCACU | -0.15 |
| UCCUGUGCUACACAUCGUAUGUACCGAAUCGGUUUUUUUGGUUUUUUUGGGUUUUUUUGGAAAGUAUUAUGUUACGCCGUUCGGAUCUGC | -0.0449 |
| UCCUGUGCUACACAUCGUAUGUACCGAAUCGGAAAAAAGGGGAAAAAAGGGAAAAAAGGAAAGUAUUAUGUUACGCCGUUCGGAUCUGCA | -0.451 |
| AGUCCUGUGCUACACAUCGUAUGUACCGAAUCGGGGUUUGGGGAAAAAGGGGUGGGGAAAGUAUUAUGUUACGCCGUUCGGAUCUGCACU | 0.787 |

A few entries again (study 3):
| Variant | relative binding score |
| --- | --- |
| S87E | 6.63% |
| V161G | -3.78% |
| S104T | 92.1% |
| V40W | 1.12% |
| R155S | 58.5% |
| S104W | -4.68% |
| R111G | 23.2% |
| V145R | 44.1% |
| R155G | 23.5% |
| R24V | 84.2% |
| S26N | 75.3% |
